Published values gathered from unrelated publications.
A part holds a random share of what one study measured. Values joined by “and” are separate records of one study, mostly repeats; a detail may differ.
Sequence of UniProt Q9UM73 (whole entry, unmodified, looked up): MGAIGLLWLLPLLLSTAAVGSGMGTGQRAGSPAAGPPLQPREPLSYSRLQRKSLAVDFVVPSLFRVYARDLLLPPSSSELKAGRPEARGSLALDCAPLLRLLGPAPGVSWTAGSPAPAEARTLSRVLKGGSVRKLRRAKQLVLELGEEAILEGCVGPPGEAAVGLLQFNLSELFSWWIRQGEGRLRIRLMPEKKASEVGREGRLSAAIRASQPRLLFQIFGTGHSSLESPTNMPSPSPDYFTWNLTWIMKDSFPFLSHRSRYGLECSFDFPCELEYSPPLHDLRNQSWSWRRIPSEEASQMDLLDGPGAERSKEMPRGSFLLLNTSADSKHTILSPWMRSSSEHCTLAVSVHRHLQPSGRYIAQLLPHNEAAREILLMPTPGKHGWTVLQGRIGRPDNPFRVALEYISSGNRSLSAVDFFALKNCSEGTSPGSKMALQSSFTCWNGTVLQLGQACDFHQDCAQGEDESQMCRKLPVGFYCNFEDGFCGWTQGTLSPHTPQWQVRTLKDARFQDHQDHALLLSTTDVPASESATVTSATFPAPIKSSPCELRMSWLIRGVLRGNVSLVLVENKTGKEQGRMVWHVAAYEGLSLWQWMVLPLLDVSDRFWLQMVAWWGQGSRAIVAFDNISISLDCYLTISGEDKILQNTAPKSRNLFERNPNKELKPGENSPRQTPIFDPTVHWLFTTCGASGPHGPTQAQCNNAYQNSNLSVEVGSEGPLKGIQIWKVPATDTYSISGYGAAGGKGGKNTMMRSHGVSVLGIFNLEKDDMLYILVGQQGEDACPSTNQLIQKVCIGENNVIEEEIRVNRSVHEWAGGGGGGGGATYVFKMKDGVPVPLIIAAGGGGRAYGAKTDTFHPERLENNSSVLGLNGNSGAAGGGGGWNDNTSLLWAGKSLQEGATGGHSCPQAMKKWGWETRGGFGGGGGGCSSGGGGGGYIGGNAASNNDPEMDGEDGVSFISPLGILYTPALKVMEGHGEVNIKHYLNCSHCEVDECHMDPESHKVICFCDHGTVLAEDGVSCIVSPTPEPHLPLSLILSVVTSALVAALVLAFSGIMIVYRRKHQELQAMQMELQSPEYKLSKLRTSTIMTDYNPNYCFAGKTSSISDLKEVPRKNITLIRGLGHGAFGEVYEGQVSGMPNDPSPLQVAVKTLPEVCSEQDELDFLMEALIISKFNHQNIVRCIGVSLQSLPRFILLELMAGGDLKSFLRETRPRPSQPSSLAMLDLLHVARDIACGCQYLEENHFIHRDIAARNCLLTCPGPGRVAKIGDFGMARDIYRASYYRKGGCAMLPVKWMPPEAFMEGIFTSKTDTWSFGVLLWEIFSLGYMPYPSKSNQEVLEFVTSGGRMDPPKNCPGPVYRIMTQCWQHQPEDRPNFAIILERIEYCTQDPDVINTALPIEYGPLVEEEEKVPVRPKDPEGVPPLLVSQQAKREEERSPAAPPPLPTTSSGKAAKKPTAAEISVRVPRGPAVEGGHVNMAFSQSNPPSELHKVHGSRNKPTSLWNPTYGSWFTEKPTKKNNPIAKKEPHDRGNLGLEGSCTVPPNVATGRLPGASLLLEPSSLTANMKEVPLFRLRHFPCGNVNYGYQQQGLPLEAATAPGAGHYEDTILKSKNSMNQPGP
Sequence of UniProt P53778 (whole entry, looked up): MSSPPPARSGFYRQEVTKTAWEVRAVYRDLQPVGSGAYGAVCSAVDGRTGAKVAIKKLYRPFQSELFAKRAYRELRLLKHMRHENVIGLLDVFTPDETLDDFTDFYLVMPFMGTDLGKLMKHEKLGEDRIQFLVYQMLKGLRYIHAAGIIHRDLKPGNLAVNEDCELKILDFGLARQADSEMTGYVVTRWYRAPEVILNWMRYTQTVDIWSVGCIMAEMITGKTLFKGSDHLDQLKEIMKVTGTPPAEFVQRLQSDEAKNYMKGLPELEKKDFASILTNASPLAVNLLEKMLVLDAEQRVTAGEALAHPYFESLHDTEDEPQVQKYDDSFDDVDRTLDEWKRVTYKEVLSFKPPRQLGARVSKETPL
Sequence of UniProt Q15208 (whole entry, looked up): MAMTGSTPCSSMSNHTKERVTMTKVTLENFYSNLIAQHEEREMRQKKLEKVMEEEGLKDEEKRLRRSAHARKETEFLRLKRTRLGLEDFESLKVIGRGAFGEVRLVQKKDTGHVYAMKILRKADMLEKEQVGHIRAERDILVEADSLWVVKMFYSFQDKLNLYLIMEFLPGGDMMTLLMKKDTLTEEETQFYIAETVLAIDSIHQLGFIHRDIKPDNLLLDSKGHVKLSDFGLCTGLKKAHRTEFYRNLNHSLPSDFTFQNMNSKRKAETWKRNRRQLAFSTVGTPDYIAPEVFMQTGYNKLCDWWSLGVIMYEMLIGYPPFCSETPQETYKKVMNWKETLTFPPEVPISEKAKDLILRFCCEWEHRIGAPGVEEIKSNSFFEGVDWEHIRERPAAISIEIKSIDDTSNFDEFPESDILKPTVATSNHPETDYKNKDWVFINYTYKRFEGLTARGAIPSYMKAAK

Set 1 — observed: enzyme activity; mode: inhibitor; tested at: 0.5 µM; relative to: control
Structure (SMILES): N#C/C(=C(/N)SC1C=CC=CC1)c1cccc(C(O)c2ccncc2)c1 (centres unmarked)
target | remaining activity
MAP4K2 (Homo sapiens, UniProt Q12851) | 79%
CSNK1A1 (Homo sapiens, UniProt P48729) | 97.1%
CSNK2A1 (Homo sapiens, UniProt P68400) | 98.7%
NEK4 (Homo sapiens, UniProt P51957) | 98.5%
EPHA5 (Homo sapiens, UniProt P54756) | 107%
MAP2K6 (Homo sapiens, UniProt P52564) | 97.8%
LYN (Homo sapiens, UniProt P07948) | 97.9%
MAPK13 (Homo sapiens, UniProt O15264) | 98.8%
PRKCI (Homo sapiens, UniProt P41743) | 93.6%
PRKG1 (Homo sapiens, UniProt Q13976) | 104%
PRKCD (Homo sapiens, UniProt Q05655) | 98.6%
MAP3K10 (Homo sapiens, UniProt Q02779) | 90.5%
CHEK1 (Homo sapiens, UniProt O14757) | 109%
STK38 (Homo sapiens, UniProt Q15208) | 98.3%
KIT (Homo sapiens, UniProt P10721) | 88.5%
LRRK2 (Homo sapiens, UniProt Q5S007) | 102%
Cyclin-dependent kinase 9, with cyclin T1 (CDK9, Homo sapiens, UniProt P50750) | 101%
BTK (Homo sapiens, UniProt Q06187) | 93.5%
AKT3 (Homo sapiens, UniProt Q9Y243) | 101%
MAPK12 (Homo sapiens, UniProt P53778) | 97.2%
MKNK2 (Homo sapiens, UniProt Q9HBH9) | 114%
WNK2 (Homo sapiens, UniProt Q9Y3S1) | 110%
IRAK4 (Homo sapiens, UniProt Q9NWZ3) | 102%

Set 2 — observed: enzyme activity; mode: inhibitor; tested at: 77 µM; relative to: untreated
Target: DNA polymerase theta, ATPase domain (POLQ, Homo sapiens, UniProt O75417)
Sequence of UniProt O75417 (whole entry, unmodified, looked up): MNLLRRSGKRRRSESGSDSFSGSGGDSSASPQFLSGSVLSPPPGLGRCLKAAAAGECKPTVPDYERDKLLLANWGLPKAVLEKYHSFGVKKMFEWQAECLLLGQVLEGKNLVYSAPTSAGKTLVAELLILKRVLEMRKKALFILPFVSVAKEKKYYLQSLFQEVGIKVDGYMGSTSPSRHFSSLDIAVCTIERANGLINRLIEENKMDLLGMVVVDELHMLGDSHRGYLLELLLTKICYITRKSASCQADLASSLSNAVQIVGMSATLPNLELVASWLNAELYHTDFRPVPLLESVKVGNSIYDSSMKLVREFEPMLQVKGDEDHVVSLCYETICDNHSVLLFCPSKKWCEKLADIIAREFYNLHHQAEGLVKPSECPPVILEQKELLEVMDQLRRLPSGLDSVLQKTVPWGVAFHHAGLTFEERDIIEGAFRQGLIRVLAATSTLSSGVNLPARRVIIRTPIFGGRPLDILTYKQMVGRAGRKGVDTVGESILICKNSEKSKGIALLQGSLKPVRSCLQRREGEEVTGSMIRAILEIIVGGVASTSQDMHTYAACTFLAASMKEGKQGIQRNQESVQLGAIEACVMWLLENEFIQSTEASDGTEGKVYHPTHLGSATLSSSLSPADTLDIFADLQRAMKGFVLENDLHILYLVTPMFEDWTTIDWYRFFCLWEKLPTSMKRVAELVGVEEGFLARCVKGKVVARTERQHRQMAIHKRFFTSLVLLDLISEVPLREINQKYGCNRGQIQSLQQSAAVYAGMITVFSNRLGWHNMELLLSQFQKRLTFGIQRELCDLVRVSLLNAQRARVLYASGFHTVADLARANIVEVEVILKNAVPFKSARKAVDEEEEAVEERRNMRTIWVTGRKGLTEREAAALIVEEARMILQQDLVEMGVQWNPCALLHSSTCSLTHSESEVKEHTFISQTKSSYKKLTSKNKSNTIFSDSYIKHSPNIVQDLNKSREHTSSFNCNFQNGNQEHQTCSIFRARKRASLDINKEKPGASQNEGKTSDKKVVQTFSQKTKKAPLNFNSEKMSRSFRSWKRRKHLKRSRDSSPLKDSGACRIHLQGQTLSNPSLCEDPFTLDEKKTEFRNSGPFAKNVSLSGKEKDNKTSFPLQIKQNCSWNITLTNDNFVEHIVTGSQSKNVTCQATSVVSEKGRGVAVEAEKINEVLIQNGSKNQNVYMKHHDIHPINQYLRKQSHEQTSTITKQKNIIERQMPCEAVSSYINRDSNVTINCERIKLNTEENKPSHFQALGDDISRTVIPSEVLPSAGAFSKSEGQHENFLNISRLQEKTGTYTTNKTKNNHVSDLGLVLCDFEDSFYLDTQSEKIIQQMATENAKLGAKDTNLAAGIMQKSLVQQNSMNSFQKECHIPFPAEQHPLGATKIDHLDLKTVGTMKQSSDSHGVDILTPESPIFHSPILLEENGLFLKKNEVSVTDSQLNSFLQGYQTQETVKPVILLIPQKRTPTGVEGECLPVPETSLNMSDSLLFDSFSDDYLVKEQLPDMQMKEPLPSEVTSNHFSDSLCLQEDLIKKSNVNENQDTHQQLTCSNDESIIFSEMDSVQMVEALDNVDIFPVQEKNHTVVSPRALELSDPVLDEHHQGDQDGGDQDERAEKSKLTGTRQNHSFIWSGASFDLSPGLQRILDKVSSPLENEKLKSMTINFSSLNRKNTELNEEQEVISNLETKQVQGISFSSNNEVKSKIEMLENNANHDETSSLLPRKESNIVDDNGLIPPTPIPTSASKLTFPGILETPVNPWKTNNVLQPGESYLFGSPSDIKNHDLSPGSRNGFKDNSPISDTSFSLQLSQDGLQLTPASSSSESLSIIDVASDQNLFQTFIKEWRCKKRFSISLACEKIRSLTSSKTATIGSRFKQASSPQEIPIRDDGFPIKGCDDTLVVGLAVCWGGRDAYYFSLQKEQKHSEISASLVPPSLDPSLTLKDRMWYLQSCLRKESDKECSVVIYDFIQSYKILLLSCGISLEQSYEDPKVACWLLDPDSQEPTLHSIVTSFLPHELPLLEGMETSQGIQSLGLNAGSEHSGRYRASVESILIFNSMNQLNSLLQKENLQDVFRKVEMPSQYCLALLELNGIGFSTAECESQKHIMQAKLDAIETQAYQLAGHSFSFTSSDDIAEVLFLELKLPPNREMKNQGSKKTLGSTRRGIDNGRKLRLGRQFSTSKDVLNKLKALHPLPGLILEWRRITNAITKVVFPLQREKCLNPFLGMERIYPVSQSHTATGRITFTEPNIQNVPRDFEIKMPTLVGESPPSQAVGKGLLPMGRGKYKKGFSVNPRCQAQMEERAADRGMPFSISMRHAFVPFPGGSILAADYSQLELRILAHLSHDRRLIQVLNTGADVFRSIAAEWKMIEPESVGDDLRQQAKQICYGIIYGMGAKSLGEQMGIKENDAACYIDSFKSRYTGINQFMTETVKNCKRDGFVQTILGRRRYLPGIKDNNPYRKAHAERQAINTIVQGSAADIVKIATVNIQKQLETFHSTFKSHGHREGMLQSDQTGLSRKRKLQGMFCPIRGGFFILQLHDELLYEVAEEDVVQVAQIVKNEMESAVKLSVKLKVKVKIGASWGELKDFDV
SMILES | remaining activity
CN1C(=O)OC(C)(C)C1=O | 98.9%
CCS(=O)(=O)CCn1c([N+](=O)[O-])cnc1C | 102% and 77.9%
C[C@@H]1COC(Nc2ccc3ncnc(Nc4ccc(OCc5nccs5)c(Cl)c4)c3c2)=N1 | 96.5%
CC1=NN(c2ccc(C)c(C)c2)C(=O)/C1=N\Nc1cccc(-c2cccc(C(=O)O)c2)c1O | 91.6%
CC1(C)O[C@@H]2C[C@H]3[C@@H]4CCC5=CC(=O)CC[C@]5(C)[C@@]4(F)[C@@H](O)C[C@]3(C)[C@]2(C(=O)CCl)O1 | 85.9% and 110%
CCC(=O)c1ccc2c(c1)N(CCCN(C)C)c1ccccc1S2 | 102%
CCCSc1nc(N[C@@H]2C[C@H]2c2ccc(F)c(F)c2)c2nnn([C@@H]3C[C@H](OCCO)[C@@H](O)[C@H]3O)c2n1 | 101%
Oc1ccc(Nc2nc(-c3ccc(Cl)cc3)cs2)cc1 | 103%
CCCCc1nc(Cl)c(CO)n1Cc1ccc(-c2ccccc2-c2nnn[nH]2)cc1 | 97.3%
CN1CCN(C(c2ccccc2)c2ccc(Cl)cc2)CC1 (centres unmarked) | 100%
CN1c2cc(O)c(N=NC(N)=O)cc2CC1S(=O)(=O)O (centres unmarked) | 101%
CC#CC(=O)Nc1cc2c(Nc3ccc(F)c(Cl)c3)ncnc2cn1 | 116%
CCCCCCCCCCCCCCCC(=O)OC[C@H](O)[C@H]1OC(=O)C(O)=C1O | 58.9%
COc1cc(C(O)CO)ccc1OS(=O)(=O)O (centres unmarked) | 102%

Set 3 — host: mouse; matrix: microsomes or S9; tested at: 2 µM; time: 0.5 h
SMILES | remaining compound [%]
Cn1nc(CNC(=O)c2cccn(C)c2=O)c2c1CCCC2 | 16
CC(=O)N1c2nc(-c3ccco3)nn2C2(CCCCC2)[C@@H]2CCCC[C@@H]21 | 1.13
CN(C)S(=O)(=O)CCc1cn([C@@H]2CCc3c(F)cccc32)nn1 | 45.1
CNC(=O)CN(c1ccc(C(C)C)cc1)S(C)(=O)=O | 74.1
CC(C(=O)N(C)C)S(=O)(=O)N1CCN(C)c2ccncc21 (centres unmarked) | 74.3
O=C(C1CCC1)N1CCCC1c1nc(C2CCOCC2)no1 (centres unmarked) | 30.4
Cc1ccc(-c2sc3cc(Br)ccc3c2-c2ccc(C)cc2)cc1 | > 99.9
CCc1nnc(NCc2ccccc2F)c2cc3sc(C)cc3n12 | 2.36
COc1ccc2c(c1)c(=O)oc1cc(OC/C=C(/C)CCC=C(C)C)ccc12 | 63.4
COc1ccc(CN2Cc3c(Cl)ccnc3C2=O)cc1OC | 0.556
CN(C)C(=O)NC1CCC(Nc2ncnc3[nH]ccc(=O)c23)CC1 (centres unmarked) | 98.9
O=C1CCC2(C(=O)N3CCN(c4ncccn4)CC3)CCCC=C2N1C1CCCC1 (centres unmarked) | 0.195
CN(CCOc1ccc(C2=NN(c3ccccc3)C(=O)C2)cc1)c1nc2ccccc2o1 | 11.5
O=C(C(Nc1ccc(N2CCCS2(=O)=O)cc1)c1ccccc1)N1CCCC1 (centres unmarked) | 44.2
Cc1nc(N2CCN(c3ccccn3)CC2)nc2c1C(=O)CC(c1cccc(Cl)c1)C2 (centres unmarked) | 86.1
CCOc1cc(=O)n2c(c1C(=O)Nc1ccc3c(c1)OCO3)CCCC2 | 55.9
COC(=O)c1c(C)n(C(C)=O)c2ccc(NS(=O)(=O)c3ccc(F)cc3F)cc12 | 0.544

Set 4 — tested at: 1 µM
SMILES: CNCc1ccccc1-c1csc([C@@H](C)Nc2nc(C)nc3cc(OC)c(OC)cc23)c1
target | test | remaining binding [%]
DYRK1B (Homo sapiens, UniProt Q9Y463) | cell-free assay, competition with immobilised ligand | 64
MAPK8 (Homo sapiens, UniProt P45983) | cell-free assay, competition with immobilised ligand | 66
FER (Homo sapiens, UniProt P16591) | cell-free assay, competition with immobilised ligand | 100
COQ8A (Homo sapiens, UniProt Q8NI60) | cell-free assay, competition with immobilised ligand | 92
RET (Homo sapiens, UniProt P07949) | cell-free assay, competition with immobilised ligand | 86
ALK (Homo sapiens, UniProt Q9UM73, C1156Y) | cell-free assay, competition with immobilised ligand | 100
BRSK1 (Homo sapiens, UniProt Q8TDC3) | cell-free assay, competition with immobilised ligand | 87
ACVR2A (Homo sapiens, UniProt P27037) | cell-free assay, competition with immobilised ligand | 94
IKBKE (Homo sapiens, UniProt Q14164) | cell-free assay, competition with immobilised ligand | 71
CDC42BPB (Homo sapiens, UniProt Q9Y5S2) | cell-free assay, competition with immobilised ligand | 89
CDK19 (Homo sapiens, UniProt Q9BWU1) | competition binding | 85
GRK3 (Homo sapiens, UniProt P35626) | cell-free assay, competition with immobilised ligand | 98
MAPK15 (Homo sapiens, UniProt Q8TD08) | cell-free assay, competition with immobilised ligand | 100
LCK (Homo sapiens, UniProt P06239) | cell-free assay, competition with immobilised ligand | 100
PIM3 (Homo sapiens, UniProt Q86V86) | cell-free assay, competition with immobilised ligand | 83
TIE1 (Homo sapiens, UniProt P35590) | cell-free assay, competition with immobilised ligand | 100
NEK6 (Homo sapiens, UniProt Q9HC98) | cell-free assay, competition with immobilised ligand | 96
FLT3 (Homo sapiens, UniProt P36888, N841I) | cell-free assay, competition with immobilised ligand | 77
Tyrosine-protein kinase ABL1, phosphorylated (ABL1, Homo sapiens, UniProt P00519, M351T) | cell-free assay, competition with immobilised ligand | 74
PAK4 (Homo sapiens, UniProt O96013) | cell-free assay, competition with immobilised ligand | 97
